Measured values collected from several papers.
Values joined by “and” are separate records of one study, mostly repeats; a detail may differ.
ABL1: Tyrosine-protein kinase ABL1 (ABL1, Homo sapiens, UniProt P00519)

Structure (SMILES) | target | test | test system | conditions | how to read | quantity | value
NC(=O)C[C@H]1CCc2sc3ncnc(O[C@H]4CC[C@H](N5CCOCC5)CC4)c3c21 | ABL1 | enzyme activity, inhibitor |  | 10 µM |  | inhibition | 4%
COc1c(Cl)cccc1Nc1c(-c2ccncc2C#C[C@@]2(C)CCCN2C(=O)/C=C/CN(C)C)[nH]c2c1C(=O)NCC2 | ABL1 (Homo sapiens, UniProt P00519, E255K) | binding, competition with immobilised ligand |  | 3 µM |  | remaining binding | 65%
N[C@H]1CC[C@H](Nc2nccc(-c3cccnc3Oc3ccc(NC(=O)NC4CC4)c4ccccc34)n2)CC1 | ABL1 | kinobead competition pulldown | HEK293/HCT116 lysate mixture | 10 µM, 1 h, 4 °C | lower = stronger competition | log2 LFQ intensity | 23.1 and 23.3
COc1c(OCCCN2CCOCC2)ccc2c1N=C(NC(=O)c1cnc(N)nc1)N1CCN=C21 | ABL1 | kinase activity, inhibitor |  | 1 µM | relative to: untreated control | remaining activity | 106%
O=c1c(-c2ccc(Cl)c(CN3CCOCC3)c2)coc2cc(O)ccc12 | ABL1 (Homo sapiens, UniProt P00519, T315I) | enzyme activity, inhibitor |  | 1 µM |  | remaining activity | 95%
CCN1CCN(Cc2ccc(NC(=O)c3ccc(C)c(NC(=O)c4cncc(-c5cccs5)c4)c3)cc2C(F)(F)F)CC1 | ABL1 (Homo sapiens, UniProt P00519, Q252H) | binding, competition with immobilised ligand |  | 1 µM |  | remaining binding | 0.45%
C=CC(=O)Nc1cccc(-c2cnc3[nH]cc(C(=O)NC(C)(C)C)c3n2)c1 | ABL1 | enzyme activity, inhibitor |  | 0.1 µM |  | inhibition | 17%
CN1CCN(c2ccc(Nc3ncc(Cl)c(Nc4ccccc4P(C)(C)=O)n3)cc2Br)CC1 | ABL1 | enzyme activity, inhibitor |  | 0.1 µM |  | inhibition | 1.4%
O=C=[N][Ru-4]123([n]4c5ccc(O)cc5c5c6c(c7cc(F)c[n+]1c7c54)C(=O)NC6=O)[S+]1CC[S+]2CC[S+]3CC1 (stereo not shown) | ABL1 (Homo sapiens, UniProt P00519, M351T) | enzyme activity |  | 100 nM, human enzyme, together with: 10 µM ATP | relative to: untreated | remaining activity | 106%
Cc1cccc(O[C@H]2CCC[C@@H](C(C)CNCc3ccncc3)C2)c1 (relative stereo) | ABL1 | enzyme activity, inhibitor |  | 10 µM |  | inhibition | -21%
COc1ccc(NC(=O)Nc2ccc3c(c2)C(=O)N(C(C)CO)CC(C)C(CN(C)Cc2ccc4c(c2)OCO4)O3)cc1 (stereo not shown) | ABL1 | kinase activity |  | 0.03 µM | relative to: control | remaining activity | 83%
O=C(O)CCC(=O)c1cccc(NS(=O)(=O)c2c[nH]c3ncccc23)c1 | ABL1 | kinase activity, radiometric |  | 10 µM |  | remaining activity | 96%
COc1ccc(O)cc1-c1c[nH]c2ncc(-c3cncc(C(=O)N(C)C)c3)cc12 | ABL1 | binding, competition with immobilised ligand |  | 0.2 µM |  | inhibition | 99.5%
CCn1cc(C(=O)O)c(=O)c2c(N)c(F)c(NC3CCCCC3)cc21 | ABL1 | kinase activity |  | 0.1 µM, together with: ATP at Km |  | inhibition | -9.7%
Nc1ncc(-c2cc(-c3cnn(CC(F)(F)F)c3)ncc2F)nc1C(=O)NC1CNCC(F)C1 (stereo not shown) | ABL1 | enzyme activity |  | 1 µM | relative to: DMSO control | remaining activity | 102%
CN1CCN(Cc2ccc(NC(=O)c3cccc(C#Cc4cnc(N)c5ncccc45)c3)cc2C(F)(F)F)CC1 | Tyrosine-protein kinase ABL1, phosphorylated (ABL1, Homo sapiens, UniProt P00519) | cell-free assay, competition with immobilised ligand |  | 0.5 µM |  | remaining binding | 0.3%
COCC12C(=O)NC3C4(C(OC)CC1O)C1CC5(O)C(OC)C(O)C(OC(C)=O)(C1C5OC(=O)c1ccccc1)C3(O)C(OC)C24 (stereo not shown) | ABL1 | kinase activity, inhibitor, ProQinase kinase profiling |  | 25 µM | relative to: control | remaining activity | 94% and 101%
O=C(Cc1ccc(OCc2ccccc2)cc1)NC1(C(=O)O)CCN(C(=O)c2ccc(-c3cccc(Cl)c3)cc2)CC1 | ABL1 | enzyme activity, inhibitor |  | 10 µM |  | activity vs control | 105%
COc1cc(OC)c(F)c(/C=C/c2cnc3ccn(S(=O)(=O)c4cn(CCF)cn4)c3n2)c1F | ABL1 |  |  | 10 nM |  | inhibition | 0%
